Measured values gathered from unrelated publications.
Each line is one published result; not all experiments were run side by side. ± marks the error that the study gave.
CDK2: Cyclin-dependent kinase 2 (CDK2, Homo sapiens, UniProt P24941)
ESR1: Estrogen receptor (ESR1, Homo sapiens, UniProt P03372)
Chain of UniProt P03372 (whole entry, looked up): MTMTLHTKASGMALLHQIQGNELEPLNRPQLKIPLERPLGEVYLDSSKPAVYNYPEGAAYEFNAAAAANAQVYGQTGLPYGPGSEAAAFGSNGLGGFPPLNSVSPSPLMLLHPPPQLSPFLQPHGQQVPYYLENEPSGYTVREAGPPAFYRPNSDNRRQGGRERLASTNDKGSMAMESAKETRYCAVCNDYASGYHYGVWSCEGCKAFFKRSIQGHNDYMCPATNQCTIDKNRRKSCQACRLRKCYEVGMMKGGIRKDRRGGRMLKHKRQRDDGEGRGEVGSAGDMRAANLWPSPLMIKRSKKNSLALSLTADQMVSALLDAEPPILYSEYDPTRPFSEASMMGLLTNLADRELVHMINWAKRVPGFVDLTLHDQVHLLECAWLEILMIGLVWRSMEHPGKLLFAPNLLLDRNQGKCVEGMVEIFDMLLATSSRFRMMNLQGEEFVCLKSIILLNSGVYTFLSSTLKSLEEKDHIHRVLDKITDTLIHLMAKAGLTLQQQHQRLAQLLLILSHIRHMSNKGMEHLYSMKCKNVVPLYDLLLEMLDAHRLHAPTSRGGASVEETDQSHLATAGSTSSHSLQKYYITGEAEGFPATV
SLC10A1: Hepatic sodium/bile acid cotransporter (SLC10A1, Homo sapiens, UniProt Q14973)
Chain of UniProt Q14973 (whole entry, looked up): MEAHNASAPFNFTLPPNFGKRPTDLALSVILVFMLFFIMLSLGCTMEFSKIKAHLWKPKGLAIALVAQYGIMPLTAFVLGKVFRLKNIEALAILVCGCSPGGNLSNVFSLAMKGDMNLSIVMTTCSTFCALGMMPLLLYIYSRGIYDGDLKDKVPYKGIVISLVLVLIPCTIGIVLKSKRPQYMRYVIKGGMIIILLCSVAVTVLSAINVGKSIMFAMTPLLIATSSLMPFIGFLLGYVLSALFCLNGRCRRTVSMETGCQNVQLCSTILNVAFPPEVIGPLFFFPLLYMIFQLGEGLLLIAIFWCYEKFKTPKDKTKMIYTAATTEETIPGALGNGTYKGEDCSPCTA
DRD3: D(3) dopamine receptor (DRD3, Homo sapiens, UniProt P35462)
Chain of UniProt P35462 (whole entry, looked up): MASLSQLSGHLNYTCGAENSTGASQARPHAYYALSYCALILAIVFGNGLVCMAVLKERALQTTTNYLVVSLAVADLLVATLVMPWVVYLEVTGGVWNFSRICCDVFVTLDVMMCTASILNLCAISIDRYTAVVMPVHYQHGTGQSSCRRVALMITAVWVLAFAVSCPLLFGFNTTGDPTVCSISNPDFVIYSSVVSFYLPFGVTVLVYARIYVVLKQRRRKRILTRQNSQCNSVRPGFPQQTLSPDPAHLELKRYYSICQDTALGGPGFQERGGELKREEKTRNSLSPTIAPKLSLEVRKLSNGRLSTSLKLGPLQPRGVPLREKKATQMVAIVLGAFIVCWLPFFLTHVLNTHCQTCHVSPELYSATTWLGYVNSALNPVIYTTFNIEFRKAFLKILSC
CDK2 with cyclin A: Cyclin-dependent kinase 2, with cyclin A (CDK2, Homo sapiens, UniProt P24941)
Chain of UniProt P51449 (whole entry, looked up): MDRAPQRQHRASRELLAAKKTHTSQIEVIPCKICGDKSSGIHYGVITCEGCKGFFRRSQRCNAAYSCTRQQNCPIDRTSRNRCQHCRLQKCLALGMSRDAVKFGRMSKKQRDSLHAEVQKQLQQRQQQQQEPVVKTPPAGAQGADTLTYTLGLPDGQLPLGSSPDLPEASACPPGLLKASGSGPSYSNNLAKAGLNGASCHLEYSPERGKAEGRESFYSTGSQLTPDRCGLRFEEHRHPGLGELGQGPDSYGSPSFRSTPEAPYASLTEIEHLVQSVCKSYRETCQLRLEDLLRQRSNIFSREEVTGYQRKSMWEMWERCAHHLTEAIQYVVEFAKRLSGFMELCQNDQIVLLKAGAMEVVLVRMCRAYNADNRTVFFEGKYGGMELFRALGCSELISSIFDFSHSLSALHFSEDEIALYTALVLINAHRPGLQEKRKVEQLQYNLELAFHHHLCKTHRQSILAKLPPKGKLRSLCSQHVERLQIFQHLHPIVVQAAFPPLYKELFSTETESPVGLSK

COc1ccc(C(=O)CSc2nnc(-c3ccc(OC)c(OC)c3)n2-c2ccccc2)cc1  Kd (CDK2; binding): > 100 µM
O=C(/C=C/c1ccc(O)cc1)c1ccc(O)cc1O  EC50 (ESR1; array formation, agonist; ERα-GFP PRL-HeLa; 1 h): 0.828 µM
CCCNCC(O)COc1ccccc1C(=O)CCc1ccccc1 (centres unmarked)  Ki (SLC10A1; taurocholate uptake, inhibitor; NTCP-expressing HEK293; with: 10 µM taurocholate): 402 ± 116 µM
Cc1[nH]c(C)c(S(=O)(=O)Nc2ccc([S+](C)[O-])c(Cl)c2)c1C(=O)N1CCC(F)(F)C1 (centres unmarked)  IC50 (DRD3; Go activation, antagonist, BRET; with: dopamine): > 100 µM
CC(=O)Nc1cccc(-c2nnc(SCC(=O)Nc3ccc(C(C)=O)cc3)n2C)c1  Kd (CDK2; binding): > 100 µM
COc1ccc(-c2oc3c(CC=C(C)C)c(O[C@@H]4O[C@H](CO)[C@@H](O)[C@H](O)[C@H]4O)cc(O)c3c(=O)c2O[C@@H]2O[C@@H](C)[C@H](O)[C@@H](O)[C@H]2O[C@@H]2O[C@@H](C)[C@H](O)[C@@H](O)[C@H]2O)cc1  EC50 (ESR1; array formation, agonist; ERα-GFP PRL-HeLa; 1 h): 2.63 µM
Cc1[nH]c(C)c(S(=O)(=O)Nc2ccc(N(C)C)c(Cl)c2)c1C(=O)N1CCC(F)(F)C1  IC50 (DRD3; β-arrestin recruitment, antagonist, PathHunter; with: dopamine EC80): > 100 µM
O=S(=O)(c1cccc(-c2ccccc2)c1)N1CCc2ccc(OCc3c(F)cccc3Cl)cc21  EC50 (RORC (Homo sapiens, UniProt P51449); reporter gene, agonist, GAL4 luciferase reporter; with: ursolic acid 2 µM): 7.8 ± 2.1 µM
CNC(=O)c1c(C)[nH]c(C)c1S(=O)(=O)Nc1ccc(C(F)(F)F)c(Cl)c1  IC50 (DRD3; β-arrestin recruitment, antagonist, PathHunter; with: dopamine EC80): > 100 µM
CCn1c(SCC(=O)Nc2cccc(C(C)=O)c2)nnc1-c1ccncc1  Kd (CDK2; binding): > 100 µM
COc1ccc(-c2oc3c(CC=C(C)C)c(O[C@@H]4O[C@H](CO)[C@@H](O)[C@H](O)[C@H]4O)cc(O)c3c(=O)c2O[C@@H]2O[C@@H](C)[C@H](O)[C@@H](O)[C@H]2O)cc1  EC50 (ESR1; array formation, agonist; ERα-GFP PRL-HeLa; 1 h): 3.28 µM
Nc1nc(N)c2nc(-c3ccccc3)c(N)nc2n1  Ki (SLC10A1; taurocholate uptake, inhibitor; NTCP-expressing HEK293; with: 10 µM taurocholate): 411 ± 139 µM
O=S(=O)(NCc1ccccn1)c1cc(Cl)c(Cl)cc1Cl  Kd (CDK2 with cyclin A): > 100 µM
Nc1nc(NC2CC2)c2ncn([C@H]3C=C[C@@H](CO)C3)c2n1  Ki (SLC10A1; taurocholate uptake, inhibitor; NTCP-expressing HEK293; with: 10 µM taurocholate): 1290 ± 4140 µM
Cc1ccc(NS(=O)(=O)c2c(C)[nH]c(C)c2C(=O)N2CCC(F)(F)C2)nc1Br  IC50 (DRD3; β-arrestin recruitment, antagonist, PathHunter; with: dopamine EC80): > 100 µM
COC(=O)c1ccc(NC(=O)CSc2nnnn2-c2ccccc2OC)cc1  Kd (CDK2; binding): > 100 µM
Cc1ncc([N+](=O)[O-])n1CCO  Ki (SLC10A1; taurocholate uptake, inhibitor; NTCP-expressing HEK293; with: 10 µM taurocholate): 369 ± 83 µM
CC(=O)N=S(=O)(O)c1ccc(N/C=C2\C(=O)Nc3ccc4ncsc4c32)cc1  Kd (CDK2 with cyclin A; bio-layer interferometry (Octet RED); 298 K, CDK2-cyclin A complex, averaged): 0.207 µM
Cc1[nH]c(C)c(S(=O)(=O)Nc2ccc(C(F)(F)F)c(Cl)c2)c1C(=O)N1CC(F)(F)C1  IC50 (DRD3; β-arrestin recruitment, antagonist, PathHunter; with: dopamine EC80): > 100 µM
CC(C)OC(=O)C(C)(C)Oc1ccc(C(=O)c2ccc(Cl)cc2)cc1  Ki (SLC10A1; taurocholate uptake, inhibitor; NTCP-expressing HEK293; with: 10 µM taurocholate): 211 ± 60 µM

For quick reference, copied from above:
CNC(=O)c1c(C)[nH]c(C)c1S(=O)(=O)Nc1ccc(C(F)(F)F)c(Cl)c1  IC50 (DRD3; β-arrestin recruitment, antagonist, PathHunter; with: dopamine EC80): > 100 µM
CCn1c(SCC(=O)Nc2cccc(C(C)=O)c2)nnc1-c1ccncc1  Kd (CDK2; binding): > 100 µM
